{"data": "Measurements pooled from the literature", "note": "Numbered parts are unrelated; each lists some results of a single study."}
{"data": "Study 1", "target": "Myc proto-oncogene protein, bHLH-zipper, MAX partner unstated (MYC, Homo sapiens, UniProt P01106, residues 368-449)", "method": "protein-binding microarray", "molecule type": "double-stranded DNA, one strand shown", "matrix": "in vitro", "tested at": "not given", "setting": "k-mer, scored over probes, only values ≥0.25", "reading": "higher = stronger binding", "UniProt P01106, sequence (368-449, looked up)": "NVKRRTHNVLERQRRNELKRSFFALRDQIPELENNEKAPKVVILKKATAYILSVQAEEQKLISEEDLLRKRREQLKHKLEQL"}
{"Strand": "CACGTGAC", "E-score": 0.487}
{"Strand": "CACGCGCA", "E-score": 0.435}
{"Strand": "ACGTGTGA", "E-score": 0.379}
{"Strand": "CATGTCCA", "E-score": 0.3}
{"Strand": "ACGACATG", "E-score": 0.279}
{"Strand": "CACACGAC", "E-score": 0.271}
{"Strand": "TGCACGCA", "E-score": 0.348}
{"Strand": "CACGACAA", "E-score": 0.263}
{"data": "Study 2", "target": "Sal-like protein 4, full length isoform A (SALL4, Homo sapiens, UniProt Q9UJQ4, residues 1-1053)", "method": "universal PBM", "molecule type": "double-stranded DNA, one strand shown", "matrix": "in vitro", "tested at": "600 nM", "setting": "8-mer, flanks averaged, mean of replicates", "reading": "higher = stronger binding", "UniProt Q9UJQ4, sequence (whole entry, looked up)": "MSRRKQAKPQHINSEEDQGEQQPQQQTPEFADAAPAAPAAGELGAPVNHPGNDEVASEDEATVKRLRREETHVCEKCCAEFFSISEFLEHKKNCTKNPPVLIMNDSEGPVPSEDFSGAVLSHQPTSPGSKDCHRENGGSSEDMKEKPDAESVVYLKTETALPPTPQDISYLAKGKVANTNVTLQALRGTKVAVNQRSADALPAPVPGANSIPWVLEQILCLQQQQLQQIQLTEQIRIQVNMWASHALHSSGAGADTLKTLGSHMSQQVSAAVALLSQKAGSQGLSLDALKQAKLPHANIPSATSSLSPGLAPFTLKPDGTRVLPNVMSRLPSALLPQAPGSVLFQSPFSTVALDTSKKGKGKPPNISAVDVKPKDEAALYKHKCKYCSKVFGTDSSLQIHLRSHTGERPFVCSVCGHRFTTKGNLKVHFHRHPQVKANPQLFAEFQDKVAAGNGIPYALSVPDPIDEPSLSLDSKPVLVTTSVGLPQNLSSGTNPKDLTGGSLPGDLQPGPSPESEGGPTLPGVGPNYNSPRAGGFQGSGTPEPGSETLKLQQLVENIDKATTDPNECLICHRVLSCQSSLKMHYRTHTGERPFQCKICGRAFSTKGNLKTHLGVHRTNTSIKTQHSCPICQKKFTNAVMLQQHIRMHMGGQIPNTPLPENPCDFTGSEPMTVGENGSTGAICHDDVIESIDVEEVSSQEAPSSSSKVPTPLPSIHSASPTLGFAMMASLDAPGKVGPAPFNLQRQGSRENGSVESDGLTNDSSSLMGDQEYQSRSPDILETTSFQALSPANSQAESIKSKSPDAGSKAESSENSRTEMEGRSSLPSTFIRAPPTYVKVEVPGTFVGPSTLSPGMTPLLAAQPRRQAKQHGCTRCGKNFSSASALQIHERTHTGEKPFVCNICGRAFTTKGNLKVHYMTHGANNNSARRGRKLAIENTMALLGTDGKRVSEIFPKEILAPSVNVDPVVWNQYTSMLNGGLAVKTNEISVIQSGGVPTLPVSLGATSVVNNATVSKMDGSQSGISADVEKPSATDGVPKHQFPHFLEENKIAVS"}
{"Strand": "CCAGCGGC", "E-score": -0.355}
{"Strand": "CCTCATTA", "E-score": 0.207}
{"Strand": "CCCATAAG", "E-score": 0.0524}
{"Strand": "TTACCTAA", "E-score": 0.197}
{"Strand": "GCGGTCCC", "E-score": -0.355}
{"Strand": "AGCTATCG", "E-score": 0.00202}
{"Strand": "CGGACTCA", "E-score": -0.221}
{"Strand": "ATTCTGAG", "E-score": 0.229}
{"data": "Study 3", "target": "Replicase polyprotein 1ab, 3C-like proteinase (rep, Middle East respiratory syndrome-related coronavirus, UniProt K9N7C7)", "observed": "enzyme activity", "tested at": "10 µM"}
{"SMILES": "CNC(=O)ON(C(C)=O)C(=O)NC", "inhibition [%]": 8}
{"SMILES": "O=c1cc(-c2ccc(O)cc2)oc2cc(O)cc(O)c12", "inhibition [%]": 17}
{"SMILES": "O=[N+]([O-])C(Br)(CO)CO", "inhibition [%]": 14}
{"data": "Study 4", "target": "RING finger protein unkempt homolog, zinc fingers 1-6, GST-SBP tag (UNK, Homo sapiens, UniProt Q9C0B0, residues 30-357)", "method": "RNA Bind-n-Seq", "molecule type": "RNA", "matrix": "in vitro", "tested at": "not given", "setting": "RNA with constant flanks, human-mouse chimeric sites, ends assumed", "relative to": "input RNA pool", "reading": "higher = stronger binding", "constant ends, left off below": "GGGAGUUCUACAGUCCGACGAUC … CAACAGAGGAUUGAGCAUCA", "UniProt Q9C0B0, sequence (30-357, looked up)": "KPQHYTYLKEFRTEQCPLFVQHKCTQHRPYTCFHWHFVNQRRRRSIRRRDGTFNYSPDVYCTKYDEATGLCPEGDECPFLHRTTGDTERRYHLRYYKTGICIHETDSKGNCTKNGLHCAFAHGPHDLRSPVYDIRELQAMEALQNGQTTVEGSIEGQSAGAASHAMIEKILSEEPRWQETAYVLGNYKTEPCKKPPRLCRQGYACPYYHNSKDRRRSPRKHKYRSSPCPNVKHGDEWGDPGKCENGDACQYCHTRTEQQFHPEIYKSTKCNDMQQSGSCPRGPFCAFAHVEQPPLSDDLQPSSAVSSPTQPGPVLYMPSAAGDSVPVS"}
{"Strand": "CAGUCCCCGUGUCCCAGUGCAGGACGAUGUGAACAAAAACUCAAAGCGGACCCUCUAUUGUAGUUCUUGAUUCUCGAAAUGUGCUAUUGUUUUUAAAAAAAAAGGAAUUUUUUUUAAAGA", "bound/input enrichment": "0.155 ratio"}
{"Strand": "GCCACCAGAUCCCAGAAACAUGACCCUUGCUGCCUACAAGGAGAAGAUGAAGGAGCUCCCGCUGGUGUCCUUGUUCUGCUCCUGCUUCUUGUCUGAUCCCCUGAAUAAGUCGUCCUACAA", "bound/input enrichment": "0.19 ratio"}
{"Strand": "CUGUGUGUGCUGAAUAAAUGGCUUGUAAAGAAGUUUUCCAAGUUGUAAACCCAUGCUGUUAUUAUAGUUGCUGCAAAAUGUUCUUCCUGAUAUUGAUGUUUGUUUACAACUGAAGGUCUC", "bound/input enrichment": "0.191 ratio"}
{"Strand": "ACUCUUGACUCUUUCCAUCCUCUUCCUUUCCCUCUUGAUAUUCAAGGCCAUGAAUCCCAAAAUAGCUGUCUUAGUGGCUAGCACCCAAACAGAGGUGGAAUAAAUCCACCCCAGUGUCUC", "bound/input enrichment": "0.939 ratio"}
{"Strand": "UAAAUUAGGGCUGCCGUUUUCUGUUUCUCCCUGGGCUGCAGACAGCUAGAAGAUUUUAUCUAGCUUAAACCAGGCUGCUGGUGUUCCCUCUUUUUUUCCACGAGGGUGUUUUUGGCUGCA", "bound/input enrichment": "0.485 ratio"}
{"Strand": "AUGCAGUAUGAGACCAACAGCUUGGACUUCAAAGUUGGGGCAGAUGGGACAGUCUUCGCCACCCGGGAGCUGCAGGUCCCCUCCGAGCAGGUGGCGUUCACGGUGACUGCAUGGGACAGC", "bound/input enrichment": "0.153 ratio"}
{"Strand": "AAAGAGUGGAUAGAGUGUGCACACGGGAUCGGUUAUACCCGGGCGAAAAAGGAGUGCAAGAUAGAGUAUGAUGAUUUCGAAGAGUGCUUGCUUCGGUACAAAACGAUGAGGCGAAUGCAU", "bound/input enrichment": "1.07 ratio"}
{"Strand": "CUGGCACUCUAUCAGAUAUAUUAAUUUUUAAAUGUAGAUGUAAUUUUAAAAAUGAAUGGCUACUUUACACGUUUAACUAGGGUUUUACUAUAUAUGUGUGUGUAUAUAUAUAUAUAUAUA", "bound/input enrichment": "24.6 ratio"}
{"data": "Study 5", "cell line": "HEK-293T-ACE2", "tested at": "concentration not given", "relative to": "vehicle"}
{"Compound": "C/C=C1\\NC(=O)[C@H]2CSSCC/C=C/[C@H](CC(=O)N[C@H](C(C)C)C(=O)N2)OC(=O)[C@H](C(C)C)NC1=O", "cell number": "77.6%"}
{"Compound": "NCC[C@H](O)C(=O)N[C@@H]1C[C@H](N)[C@@H](O[C@H]2O[C@H](CN)[C@@H](O)[C@H](O)[C@H]2O)[C@H](O)[C@H]1O[C@H]1O[C@H](CO)[C@@H](O)[C@H](N)[C@H]1O.O=S(=O)(O)O.O=S(=O)(O)O", "cell number": "101%"}
{"Compound": "O=C(O)CCCN1CCC(O[C@@H](c2ccc(Cl)cc2)c2ccccn2)CC1.O=S(=O)(O)c1ccccc1", "cell number": "101%"}
{"data": "Study 6", "target": "Replicase polyprotein 1ab, polymerase (rep, Severe acute respiratory syndrome coronavirus 2, UniProt P0DTD1)", "observed": "enzyme activity", "mode": "inhibitor", "tested at": "20 µM"}
{"Compound": "NS(=O)(=O)Oc1ccc2c3c(c(=O)oc2c1)CCCCC3", "inhibition [%]": -3.5}
{"Compound": "CC(C)(CO)c1cc2cc(NC(=O)C3(c4ccc5c(c4)OC(F)(F)O5)CC3)c(F)cc2n1C[C@@H](O)CO", "inhibition [%]": -7.38}
{"Compound": "Cc1ncccc1OC[C@@H]1CCCN1", "inhibition [%]": 2.06}
{"Compound": "Cc1ncc([N+](=O)[O-])n1CC(O)CCl (stereo not shown)", "inhibition [%]": -6.46}
{"Compound": "COc1ccc(-n2nc(C(N)=O)c3c2C(=O)N(c2ccc(N4CCCCC4=O)cc2)CC3)cc1", "inhibition [%]": 7.54}
{"Compound": "N[C@@H](CC(=O)Nc1ccc(Oc2cc(F)c(F)cc2Br)cc1)C(=O)O", "inhibition [%]": 7.76}
{"Compound": "C[C@@H](Oc1ccc(Cl)cc1)c1ccnc2ncnn12", "inhibition [%]": -1.41}
{"Compound": "Cc1ccccc1-c1cc(N2CCN(C)CC2)ncc1N(C)C(=O)C(C)(C)c1cc(C(F)(F)F)cc(C(F)(F)F)c1", "inhibition [%]": -9.39}
{"Compound": "CC(=O)c1ccc2c(c1)N(CCCN(C)C)c1ccccc1S2", "inhibition [%]": -3.66}
{"Compound": "O=C(NS(=O)(=O)c1ccc(Br)s1)c1ccc(Cl)cc1Cl", "inhibition [%]": -2.81}
{"Compound": "CC(C(=O)O)c1ccc(-c2ccccc2)c(F)c1 (stereo not shown)", "inhibition [%]": 1.37}
{"Compound": "NS(=O)(=O)NCCNc1nonc1/C(=N/O)Nc1ccc(F)c(Br)c1", "inhibition [%]": 1.64}
{"Compound": "CC(C)c1ccc(-c2cc(=O)c3ccccc3o2)cc1", "inhibition [%]": -4.58}
{"Compound": "COc1ccc(CCN(C)CCCN2CCc3cc(OC)c(OC)cc3CC2=O)cc1OC", "inhibition [%]": -0.06}
{"Compound": "c1cc2c(cc1C1CCCCC1)c1c3n2CCNC3CCC1 (stereo not shown)", "inhibition [%]": -0.55}
{"Compound": "Cc1c(Cl)cccc1S(=O)(=O)Nc1nc(CC(=O)N2CCN(C)CC2)cs1", "inhibition [%]": -0.05}
{"Compound": "O=C(O)Cn1nnc(-c2cc(N3CCC(Oc4cc(F)ccc4Br)CC3)no2)n1", "inhibition [%]": -2.09}
{"Compound": "O=C(CN1CCNCC1)NC1CCCCC1", "inhibition [%]": 0.24}
{"Compound": "NC(=O)OC[C@@H]1[C@H](NC(=O)/C(=N\\OCC(=O)O)c2csc(N)n2)C(=O)N1S(=O)(=O)O", "inhibition [%]": 2.42}
{"Compound": "N[C@@H]1CN(c2c(F)cc3c(=O)c(C(=O)O)cn([C@@H]4C[C@@H]4F)c3c2Cl)CC12CC2", "inhibition [%]": 2.32}
{"Compound": "COc1ccnc2[nH]cc(C(=O)C(=O)N3CCN(C(=O)c4ccccc4)C[C@H]3C)c12", "inhibition [%]": 4.82}
{"Compound": "C[C@]1(c2nc3c(C(N)=O)cccc3[nH]2)CCCN1", "inhibition [%]": 0.33}
{"Compound": "Cc1o[nH]c(=O)c1C[C@H](N)C(=O)O", "inhibition [%]": -3.27}
{"Compound": "CNc1ncc2cc(-c3cc(NC(=O)NCCC(C)(C)C)c(F)cc3C)c(C)nc2n1", "inhibition [%]": -1.02}
{"Compound": "C1Cc2[nH]nc(-c3nn[nH]n3)c2C1", "inhibition [%]": -3.5}
